Published values collected from several papers.
Parts stem from different laboratories: compare values within a part only. Changes are numbered by the printed parent chain.

Set 1
Target: CCNB3, cyclin fold, Cln2 fusion (human)
Technique: yeast growth competition, sequencing
Sample: yeast
Notes: weak parent motif
Baseline: not given
Reading: higher = stronger binding
Starting sequence: PKN2 docking peptide (human); VSAVQKLDFSDTM
Change	normalised enrichment score
K6V	0.44
T12A	0.195
M13F	0.167
Q5R	1.41
T12P	0.518
V4D	0.14
D11N	0.364
T12V	0.0329
D11W	0.476
M13V	0.198
K6P	-0.0164
V4K	0.232
K6W	0.805
A3T	0.139
L7T	0.19
D8C	0.227
A3H	0.302
K6Q	0.433
F9W	-0.201
M13A	-0.00669
D11F	0.129
A3S	0.109
S10L	-0.0693
D11G	0.339
V4S	-0.153

Set 2
Target: BATF2, bZIP domain (human)
Technique: DHFR protein complementation
Sample: yeast
Notes: single substitutions, most at no-binding floor
Baseline: wild-type JUN-FOS pair
Reading: higher = stronger binding
Starting sequence: JUN, bZIP domain (human); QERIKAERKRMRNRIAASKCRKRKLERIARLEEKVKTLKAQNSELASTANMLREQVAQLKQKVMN; partner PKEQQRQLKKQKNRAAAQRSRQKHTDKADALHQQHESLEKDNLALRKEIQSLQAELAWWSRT
Change	binding fitness [natural log]
T48C	-0.428
V56C	-0.735
Q55M	-0.436
A40L	-0.405
E33S	-0.493
M51D	-0.107
K36M	-0.165
L38H	-1.32
R30K	-0.328
L59S	-0.843
L52G	-1.16
K36S	-0.286
A46E	-0.173
L38Q	-0.958
Q41I	-0.174
K36D	-0.31
T48I	-0.303
S47T	-0.29
L45E	-1.43
E33A	-0.383
S43L	-0.215
E32T	-0.532
A40D	-0.302
K36C	-0.272
A40P	-1.37

Set 3
Target: Interferon regulatory factor 5, full length, phosphomimetic (IRF5, Homo sapiens, UniProt Q13568-2, residues 1-514, S451D/S453D/S456D/S462D)
Technique: protein-binding microarray
Form: double-stranded DNA, one strand shown
Sample: in vitro
Tested at: 940 nM top
Notes: 60-bp whole probe
With: salmon DNA 0.4 mg/ml
Baseline: random background probes
Reading: higher = stronger binding
All sequences stand within: GCCTAGCAC … GTCTTGATTCGCTTGACGCTGCTG
Strand	fitted relative affinity
ATTTTTTTTTTCATCATTGCGTGCTAG	1.48 z-score
TTAGGACTGGGGAATGGGTTAGTGCTA	-0.415 z-score
TCAAATTTTAATAACACACTGTGCTAG	0.235 z-score
GACGGTTTCCTACTGCAGACGTGCTAG	0.953 z-score
TTAGGTATCCGGACTGGGTTAGTGCTA	-0.176 z-score
TTAGATCTCAATTTCGATTAGTGCTAG	1.46 z-score
GACGGTTTCCTTCTCCAGACGTGCTAG	1.61 z-score
TTAGATATAGGGACTGGATTAGTGCTA	-0.121 z-score
TCAATTCTCTGCTTCTGACTGTGCTAG	1.41 z-score
TTAGGTTCCCTTCTCCTTTAGTGCTAG	0.761 z-score
TTCGGACTGGGTATCGGTTAGTGCTAG	3.93 z-score
GACGGTATCGACACTGTGGACGTGCTA	3.89 z-score
TCAGTGCTCATTTTTTTACTGTGCTAG	0.186 z-score
TTAGATATCGGACTGGATTAGTGCTAG	-0.146 z-score
CCGAGTCCCTATCTCCTCACGTGCTAG	0.182 z-score
CGCCCTCTCAACCATCCTGGGGTGCTA	0.593 z-score
TTAGGACTGGACACTGGGGTAGTGCTA	-0.381 z-score
GACGGTTCCCTTTTCCAGACGTGCTAG	0.842 z-score
TCATGTATGAGCCTCTGACTGTGCTAG	-0.12 z-score
GGGGTTTCGGATGGGATGTCGTGCTAG	6.62 z-score
CCCTTATTCTAGCCTCCATTTGTGCTA	1.39 z-score
GACGGTTTCGGTTTTGGGACGTGCTAG	12.2 z-score
TCAAATTTACTTTCTACACTGTGCTAG	1.04 z-score

Set 4
Target: Fragile X messenger ribonucleoprotein 1, C-terminal low-complexity region (Fmr1, Mus musculus, UniProt P35922)
Technique: RNA Bind-n-Seq
Form: RNA
Sample: in vitro
Tested at: 200 nM
Notes: whole 134-nt RNA, ends assumed
With: 150 mM KCl
Baseline: input library
Reading: higher = stronger binding
Strand	log2 enrichment
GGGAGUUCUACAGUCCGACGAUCUCAAGUCCUGUGCUACACAUCGUAUGUACCGAAUCGGGCCGGGCCGGGCCGGGGAAAGUAUUAUGUUACGCCGUUCGGAUCUGCACUUCCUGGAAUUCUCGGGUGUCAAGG	0.174
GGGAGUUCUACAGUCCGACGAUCAAGUCCUGUGCUACACAUCGUAUGUACCGAAUCGGUUUGGAAAAAAAGGAAAAAGGAAAGUAUUAUGUUACGCCGUUCGGAUCUGCACUUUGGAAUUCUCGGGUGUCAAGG	-0.898
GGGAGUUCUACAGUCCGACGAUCACCAUGCAGGUGGGCAUCUUUGGGAAGUGGGGCAAGGGGGGGAUAGGGAGGGGGGUAACACUUUGGGAACAAGUGGUCCCAGGUCGUUUCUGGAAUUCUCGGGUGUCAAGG	0.865
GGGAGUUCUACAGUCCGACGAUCUGGGGAGACUACGAUGACAGCGCCUUCAUGGAGCCCAGGUACCACGUCCGUGGAGAAGAUCUGGACAAGCUCCACAGAGCUGCCUGGUGGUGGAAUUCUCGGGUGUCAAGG	-1.23
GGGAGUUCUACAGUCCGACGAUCUUAGGAAGAGAAGACAAGGUGGCCUCUCAUUAGAAGAAGAGGAAGAGGAGGAUGCCAAUUCAGAAUCUGAGGGAAGCAGUAGUGAGGAGGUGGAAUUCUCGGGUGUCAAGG	-1.09
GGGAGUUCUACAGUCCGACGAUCAAGUCCUGUGCUACACAUCGUAUGUACCGAAUCGGGGCCCCGGCCCCGGGCCCCGGGAAAGUAUUAUGUUACGCCGUUCGGAUCUGCACUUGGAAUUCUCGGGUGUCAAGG	-0.619
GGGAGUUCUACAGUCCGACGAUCAAGUCCUGUGCUACACAUCGUAUGUACCGAAUCGGGUUUUUUUGGGAGGGAAAGGGAAAGUAUUAUGUUACGCCGUUCGGAUCUGCACUUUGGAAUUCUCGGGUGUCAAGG	0.486
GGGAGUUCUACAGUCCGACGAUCUAACUUUAGAGGAGGAUCUGAUGGAUAUGGCAGUGGACGUGGAUUUGAGGAUGGCUAUAAUGGGUAUGGAGGAGGACCUGGAGGUGGCAAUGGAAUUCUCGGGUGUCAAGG	0.332
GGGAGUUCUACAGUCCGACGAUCUCCUGUGCUACACAUCGUAUGUACCGAAUCGGCCCCCCGGCCCCCCGGGCCCCCCGGGGAAAGUAUUAUGUUACGCCGUUCGGAUCUGCAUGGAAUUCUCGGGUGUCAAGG	-0.227
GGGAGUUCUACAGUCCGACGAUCAGUCCUGUGCUACACAUCGUAUGUACCGAAUCGGGGAAAAAAAGGGGAGGGGUGGGGAAAGUAUUAUGUUACGCCGUUCGGAUCUGCACUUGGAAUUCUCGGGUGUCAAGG	1.05
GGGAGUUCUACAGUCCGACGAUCCAAGUCCUGUGCUACACAUCGUAUGUACCGAAUCGGCCCCGGCCCCGGGCCCCGGAAAGUAUUAUGUUACGCCGUUCGGAUCUGCACUUCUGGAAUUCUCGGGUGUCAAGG	-0.44
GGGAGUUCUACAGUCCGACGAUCAGUCCUGUGCUACACAUCGUAUGUACCGAAUCGGGUUUUGGGGUUUUGGGUUUUGGGAAAGUAUUAUGUUACGCCGUUCGGAUCUGCACUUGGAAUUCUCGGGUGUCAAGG	0.666
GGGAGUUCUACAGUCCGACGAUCGCAGGAAGUAAAAACAAAUGGAAAUGCUUCGGAUAGUGGCAGGGGUGGGGGUUGCUAAGGAAAGGGUGGGAUGAGAGUGGGUAAAGAGUUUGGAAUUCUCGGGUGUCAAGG	0.114
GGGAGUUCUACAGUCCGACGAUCGCAGGAAGUAAAGACAAAUGGAAAUGCUUCGGAUAGUGGCAGGGGUGGGGGUUGCUAAGGAAAGGGUGGGAUGGGAGUGGGUAAAGAGUUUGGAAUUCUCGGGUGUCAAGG	0.428

Set 5
Target: ABI1, truncated, D143A, DHFR fusion (Arabidopsis thaliana)
Technique: DHFR PCA, deep sequencing
Sample: yeast
Notes: methotrexate growth selection, single substitutions
With: (+)-ABA 1.4 µM
Baseline: wild-type fitted maximum
Reading: higher = stronger binding
Starting sequence: PYL1, truncated, DHFR fusion (Arabidopsis thaliana); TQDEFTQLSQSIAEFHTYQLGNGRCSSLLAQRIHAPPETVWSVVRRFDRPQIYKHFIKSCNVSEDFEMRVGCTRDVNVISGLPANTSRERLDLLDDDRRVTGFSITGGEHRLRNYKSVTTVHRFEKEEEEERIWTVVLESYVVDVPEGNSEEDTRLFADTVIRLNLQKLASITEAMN; partner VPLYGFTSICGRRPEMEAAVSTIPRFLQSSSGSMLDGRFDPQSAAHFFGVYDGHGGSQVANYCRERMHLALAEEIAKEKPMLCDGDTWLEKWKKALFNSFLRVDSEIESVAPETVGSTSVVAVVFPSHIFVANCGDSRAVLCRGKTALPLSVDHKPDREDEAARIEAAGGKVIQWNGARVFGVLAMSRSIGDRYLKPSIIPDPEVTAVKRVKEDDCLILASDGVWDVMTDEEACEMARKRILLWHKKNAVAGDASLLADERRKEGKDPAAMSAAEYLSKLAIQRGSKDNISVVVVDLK
Change	relative binding score
S80V	-3.74%
L156C	61.8%
L82W	28%
G23F	6.06%
D144M	-15.7%
V40Y	-13.5%
I162W	14.2%
I79V	67.2%
T120D	-10.9%
C72A	76.7%
G102A	24.2%
R74S	-5.36%
S42L	-2.18%
R90W	-5.48%
D97W	3.07%
L166S	0.19%
R45H	6.15%
R123L	30.8%
F103Y	51.5%
E109L	6.14%

For quick reference, copied from above (set 3):
Strand	fitted relative affinity
TTAGGACTGGACACTGGGGTAGTGCTA	-0.381 z-score
TTAGGTTCCCTTCTCCTTTAGTGCTAG	0.761 z-score
TTAGGACTGGGGAATGGGTTAGTGCTA	-0.415 z-score
GACGGTTCCCTTTTCCAGACGTGCTAG	0.842 z-score
TTAGGTATCCGGACTGGGTTAGTGCTA	-0.176 z-score
TTAGATATAGGGACTGGATTAGTGCTA	-0.121 z-score
GACGGTTTCCTTCTCCAGACGTGCTAG	1.61 z-score
CCCTTATTCTAGCCTCCATTTGTGCTA	1.39 z-score
GACGGTATCGACACTGTGGACGTGCTA	3.89 z-score
CGCCCTCTCAACCATCCTGGGGTGCTA	0.593 z-score
TCAATTCTCTGCTTCTGACTGTGCTAG	1.41 z-score
TTAGATCTCAATTTCGATTAGTGCTAG	1.46 z-score
CCGAGTCCCTATCTCCTCACGTGCTAG	0.182 z-score
GGGGTTTCGGATGGGATGTCGTGCTAG	6.62 z-score
